Literature values as cited in several papers.
Each line is one published result; not all experiments were run side by side. Values joined by “and” are separate records of one study, mostly repeats; a detail may differ. ± marks the error that the study gave. Bridge positions count the residues as written; N and C are the ends. Ends that are not written are not given here.
Sequence of UniProt O88703 (whole entry, looked up): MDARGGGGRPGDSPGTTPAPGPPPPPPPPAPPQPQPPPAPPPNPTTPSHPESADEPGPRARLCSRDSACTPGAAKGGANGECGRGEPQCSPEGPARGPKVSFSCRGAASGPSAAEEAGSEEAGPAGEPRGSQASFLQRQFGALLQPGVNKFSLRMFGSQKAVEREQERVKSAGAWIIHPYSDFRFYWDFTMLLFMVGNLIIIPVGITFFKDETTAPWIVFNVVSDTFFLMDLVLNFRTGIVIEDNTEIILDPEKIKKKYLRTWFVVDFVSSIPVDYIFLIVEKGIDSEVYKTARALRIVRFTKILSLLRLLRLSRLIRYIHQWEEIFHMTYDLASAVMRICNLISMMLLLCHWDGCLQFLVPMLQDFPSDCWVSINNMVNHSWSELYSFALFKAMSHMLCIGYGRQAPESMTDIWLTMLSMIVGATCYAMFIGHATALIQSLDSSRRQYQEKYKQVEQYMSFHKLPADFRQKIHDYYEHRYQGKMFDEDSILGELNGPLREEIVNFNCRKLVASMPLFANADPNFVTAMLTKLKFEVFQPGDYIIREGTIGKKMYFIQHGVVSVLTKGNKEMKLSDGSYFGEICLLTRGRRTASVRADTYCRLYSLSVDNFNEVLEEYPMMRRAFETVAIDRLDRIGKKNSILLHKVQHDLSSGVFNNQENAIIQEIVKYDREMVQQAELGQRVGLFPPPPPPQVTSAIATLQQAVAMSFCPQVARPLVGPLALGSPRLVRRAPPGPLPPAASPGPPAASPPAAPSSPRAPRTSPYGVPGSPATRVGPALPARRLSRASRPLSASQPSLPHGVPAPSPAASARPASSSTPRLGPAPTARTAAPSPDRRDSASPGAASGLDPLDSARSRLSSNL
Sequence of UniProt P35462 (whole entry, looked up): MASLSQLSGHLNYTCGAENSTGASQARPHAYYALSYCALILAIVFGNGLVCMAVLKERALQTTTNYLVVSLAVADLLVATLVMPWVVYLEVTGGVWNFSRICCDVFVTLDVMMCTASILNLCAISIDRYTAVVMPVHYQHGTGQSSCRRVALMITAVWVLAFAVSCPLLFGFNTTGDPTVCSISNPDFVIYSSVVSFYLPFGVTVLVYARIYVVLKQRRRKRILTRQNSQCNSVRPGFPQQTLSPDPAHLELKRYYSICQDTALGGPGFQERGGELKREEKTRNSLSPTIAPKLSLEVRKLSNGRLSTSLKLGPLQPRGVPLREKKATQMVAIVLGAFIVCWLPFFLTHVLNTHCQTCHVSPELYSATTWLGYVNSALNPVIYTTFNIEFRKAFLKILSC
Sequence of UniProt Q01827 (whole entry, looked up): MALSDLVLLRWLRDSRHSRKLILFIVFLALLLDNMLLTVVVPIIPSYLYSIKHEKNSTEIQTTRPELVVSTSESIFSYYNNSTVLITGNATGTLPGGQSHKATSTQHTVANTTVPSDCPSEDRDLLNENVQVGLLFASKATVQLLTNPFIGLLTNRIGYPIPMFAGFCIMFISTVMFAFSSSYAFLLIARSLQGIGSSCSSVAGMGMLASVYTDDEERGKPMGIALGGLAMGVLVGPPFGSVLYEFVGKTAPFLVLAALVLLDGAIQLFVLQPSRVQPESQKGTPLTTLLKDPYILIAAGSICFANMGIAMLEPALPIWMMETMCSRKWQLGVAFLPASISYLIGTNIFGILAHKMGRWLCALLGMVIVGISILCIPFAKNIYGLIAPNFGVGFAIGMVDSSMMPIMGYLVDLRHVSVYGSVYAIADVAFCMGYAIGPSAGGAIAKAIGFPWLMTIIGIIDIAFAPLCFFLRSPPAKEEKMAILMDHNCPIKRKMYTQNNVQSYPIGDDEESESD
Sequence of UniProt P33533 (whole entry, looked up): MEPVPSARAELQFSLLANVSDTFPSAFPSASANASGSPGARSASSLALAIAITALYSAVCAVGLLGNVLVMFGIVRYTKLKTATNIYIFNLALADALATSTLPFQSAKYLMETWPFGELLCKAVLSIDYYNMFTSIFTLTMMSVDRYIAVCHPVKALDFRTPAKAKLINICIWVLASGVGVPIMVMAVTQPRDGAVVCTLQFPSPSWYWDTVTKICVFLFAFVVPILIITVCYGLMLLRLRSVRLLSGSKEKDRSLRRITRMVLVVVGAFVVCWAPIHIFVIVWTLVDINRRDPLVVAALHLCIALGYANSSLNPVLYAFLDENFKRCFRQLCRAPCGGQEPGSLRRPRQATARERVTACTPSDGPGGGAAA
Sequence of UniProt Q01959 (whole entry, looked up): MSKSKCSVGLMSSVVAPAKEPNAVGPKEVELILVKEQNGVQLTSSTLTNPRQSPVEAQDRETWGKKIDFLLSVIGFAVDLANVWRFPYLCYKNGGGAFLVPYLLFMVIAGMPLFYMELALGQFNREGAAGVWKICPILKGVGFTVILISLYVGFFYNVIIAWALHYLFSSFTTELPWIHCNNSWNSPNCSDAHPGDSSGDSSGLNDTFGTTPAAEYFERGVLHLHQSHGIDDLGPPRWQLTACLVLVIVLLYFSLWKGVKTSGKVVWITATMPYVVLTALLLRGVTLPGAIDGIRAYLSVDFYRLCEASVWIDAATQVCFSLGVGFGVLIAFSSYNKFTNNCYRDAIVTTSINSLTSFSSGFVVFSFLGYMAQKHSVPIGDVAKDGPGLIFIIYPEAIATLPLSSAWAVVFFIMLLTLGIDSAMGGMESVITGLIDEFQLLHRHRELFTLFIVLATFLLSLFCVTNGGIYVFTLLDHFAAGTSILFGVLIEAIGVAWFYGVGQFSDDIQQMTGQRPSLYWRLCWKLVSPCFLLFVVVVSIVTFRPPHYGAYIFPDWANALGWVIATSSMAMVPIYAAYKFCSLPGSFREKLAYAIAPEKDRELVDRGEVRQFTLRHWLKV
Sequence of UniProt P0DW61 (whole entry, looked up): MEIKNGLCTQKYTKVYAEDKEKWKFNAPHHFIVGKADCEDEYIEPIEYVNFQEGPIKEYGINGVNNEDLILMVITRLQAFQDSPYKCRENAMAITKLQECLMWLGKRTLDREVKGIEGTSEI
Sequence of UniProt P23977 (whole entry, looked up): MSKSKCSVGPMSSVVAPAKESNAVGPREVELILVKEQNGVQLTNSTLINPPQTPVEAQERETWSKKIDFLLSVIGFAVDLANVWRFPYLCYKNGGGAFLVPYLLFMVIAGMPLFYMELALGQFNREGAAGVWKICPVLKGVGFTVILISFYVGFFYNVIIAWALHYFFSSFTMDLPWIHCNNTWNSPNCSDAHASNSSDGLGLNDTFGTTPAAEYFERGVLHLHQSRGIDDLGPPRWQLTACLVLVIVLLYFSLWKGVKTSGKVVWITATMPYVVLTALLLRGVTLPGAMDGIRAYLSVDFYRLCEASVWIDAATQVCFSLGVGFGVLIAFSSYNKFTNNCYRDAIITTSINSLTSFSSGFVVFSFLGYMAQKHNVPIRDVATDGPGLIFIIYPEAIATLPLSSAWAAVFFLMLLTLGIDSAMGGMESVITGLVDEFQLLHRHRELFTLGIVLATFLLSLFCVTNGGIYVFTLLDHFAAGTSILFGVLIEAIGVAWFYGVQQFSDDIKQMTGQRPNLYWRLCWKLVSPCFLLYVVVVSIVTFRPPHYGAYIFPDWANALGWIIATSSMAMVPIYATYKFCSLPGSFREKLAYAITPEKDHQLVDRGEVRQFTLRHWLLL

COc1ccc(CC[C@H]2CCC[C@@H](CCc3ccc(OC)cc3)N2C[C@@H](O)CO)cc1 (relative stereo) — Ki (Slc6a3 (Rattus norvegicus, UniProt P23977); inhibitor): 1440 nM
[K+] — Kd (Na+/K+-ATPase (human); binding; human erythrocytes; together with: Na+ 150 mM): 330000 nM
C[S+](CC[C@H](N)C(=O)[O-])C[C@H]1O[C@@H](n2cnc3c(N)ncnc32)[C@H](O)[C@@H]1O (some centres unmarked) — Kd (EgtD (Mycolicibacterium smegmatis); binding, isothermal titration calorimetry): 270000 ± 20000 nM
CN1C/C(=C\c2ccc(Cl)cc2Cl)C/C(=C/c2ccc(Cl)cc2Cl)C1 — Ki (Slc18a2 (Rattus norvegicus, UniProt Q01827); substrate site binding): 320 nM
CCC(C)(C)C(=O)C(=O)N1CCCC[C@H]1C(=O)O[C@H](CCc1ccc(OC)c(OC)c1)c1cccc(OCC(=O)O)c1 — Kd (FKBP; binding): ~20 nM
CHPGPPC (disulfide 1-7) (disulfide) — Kd (Streptavidin (Streptomyces avidinii, UniProt P22629); binding): 670 nM
CCCC(=O)O[C@@H]1[C@@H](C)[C@@]2(O)[C@@H](C=C(CO)C[C@]3(O)C(=O)C(C)=C[C@@H]23)[C@@H]2C(C)(C)[C@]12OC(=O)CCC — Kd (PKC delta with C1b only; binding): 2.8 nM
O=C(N[C@H](CO)[C@H](O)c1ccc([N+](=O)[O-])cc1)C(Cl)Cl — Kd (Escherichia coli chloramphenicol acetyltransferase III; binding, stopped-flow fluorometry; pH 7.5): ~4000 nM
O=P(O)(O)OP(=O)(O)OP(=O)(O)OC[C@H]1O[C@@H](n2cnc3c(NCCc4ccccc4)ncnc32)[C@H](O)[C@@H]1O — Kd (CFTR NBD1; binding, SPR or ITC): 300 ± 30 nM
NC(=O)C1=CN([C@@H]2O[C@H](COP(=O)(O)OP(=O)(O)OC[C@H]3O[C@@H](n4cnc5c(N)ncnc54)[C@H](O)[C@@H]3O)[C@@H](O)[C@H]2O)C=CC1 — Kd (S-adenosylhomocysteine hydrolase human; cofactor binding; concentration not given): ~10 nM
OC[C@H]1O[C@H](O[C@H]2[C@H](O)[C@@H](O)C(O)O[C@@H]2CO)[C@H](O)[C@@H](O)[C@@H]1O (mixture of isomers) — Kd (maltose-binding protein E. coli): ~1000 nM
cGMP — Kd (Potassium/sodium hyperpolarization-activated cyclic nucleotide-gated channel 2, C-terminal region (Hcn2, Mus musculus, UniProt O88703); binding, isothermal titration calorimetry; tetrameric protein, high-affinity site): < 400 nM and ~400 nM
Nc1ncnc2c1ncn2[C@@H]1O[C@@H]2COP(=O)(O)OP(=O)(O)OC[C@H]3OC(O[C@@H]1[C@@H]2O)[C@H](O)[C@@H]3O — Kd (tad1 (Metaclostridioides mangenotii, UniProt P0DW61)): 241 nM
C=CCN(CC=C)CCc1c[nH]c2ccc(OC)cc12 — Ki (SLC6A3 (Homo sapiens, UniProt Q01959)): 3380 nM
CSCC[C@H](NC(=O)[C@H](CC(C)C)NC(=O)[C@H](Cc1ccccc1)NC(=O)[C@H](CC(=O)O)NC(=O)[C@H](Cc1ccc(O)cc1)NC(=O)[C@H](Cc1c[nH]c2ccccc12)NC(=O)[C@@H](NC(=O)[C@@H](NC(=O)[C@H](CCCNC(=N)N)NC(=O)[C@@H](N)CO)C(C)C)[C@@H](C)O)C(=O)N[C@@H](CCC(=O)O)C(=O)N[C@@H](CC(=O)O)C(=O)N[C@H](C(=O)N[C@@H](CCCCN)C(=O)N[C@@H](CO)C(=O)N[C@@H](CCCNC(=N)N)C(=O)O)[C@@H](C)O — Kd (Gαi; binding, surface plasmon resonance): 3900 nM
C=CCN(CC=C)CCc1c[nH]c2ccccc12 — Ki (DRD3 (Homo sapiens, UniProt P35462); binding; cloned human receptor; together with: [3H]N-methylspiperone): 672 nM
Dmt-c(SEtS)[DCys-Aci-DPen]OH — Kd (Oprd1 (Rattus norvegicus, UniProt P33533); antagonist; together with: DPDPE): 4.4 ± 1.4 nM

Some of these lines once more:
[K+] — Kd (Na+/K+-ATPase (human); binding; human erythrocytes; together with: Na+ 150 mM): 330000 nM
C[S+](CC[C@H](N)C(=O)[O-])C[C@H]1O[C@@H](n2cnc3c(N)ncnc32)[C@H](O)[C@@H]1O (some centres unmarked) — Kd (EgtD (Mycolicibacterium smegmatis); binding, isothermal titration calorimetry): 270000 ± 20000 nM
CN1C/C(=C\c2ccc(Cl)cc2Cl)C/C(=C/c2ccc(Cl)cc2Cl)C1 — Ki (Slc18a2 (Rattus norvegicus, UniProt Q01827); substrate site binding): 320 nM
